Assay results of several laboratories.
Every numbered part comes from another study and shows a few of its results, in no order.

Block 1
Target: Sal-like protein 4, full length isoform B (SALL4, Homo sapiens, UniProt Q9UJQ4-2, residues 1-616)
Method: universal PBM
Form: double-stranded DNA, one strand shown
Medium: in vitro
Tested at: not given
Setting: 8-mer, flanks averaged, mean of replicates
Direction: higher = stronger binding
Target sequence (chain): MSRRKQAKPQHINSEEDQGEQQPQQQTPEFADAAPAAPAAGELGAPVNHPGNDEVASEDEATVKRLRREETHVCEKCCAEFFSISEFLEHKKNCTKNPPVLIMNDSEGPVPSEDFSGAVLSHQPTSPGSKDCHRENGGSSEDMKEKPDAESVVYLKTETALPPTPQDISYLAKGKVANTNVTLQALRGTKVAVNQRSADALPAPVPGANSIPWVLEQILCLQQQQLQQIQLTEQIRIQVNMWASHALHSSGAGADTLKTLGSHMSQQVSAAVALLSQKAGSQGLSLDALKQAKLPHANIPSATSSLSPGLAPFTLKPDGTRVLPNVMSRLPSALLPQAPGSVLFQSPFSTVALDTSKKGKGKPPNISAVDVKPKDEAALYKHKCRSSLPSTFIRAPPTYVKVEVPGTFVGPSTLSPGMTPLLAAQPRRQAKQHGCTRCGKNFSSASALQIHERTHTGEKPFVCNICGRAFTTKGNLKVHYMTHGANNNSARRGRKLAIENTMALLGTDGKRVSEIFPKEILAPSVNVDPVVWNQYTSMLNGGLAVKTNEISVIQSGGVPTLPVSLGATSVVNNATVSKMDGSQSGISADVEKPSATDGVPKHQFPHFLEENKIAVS
The E-score of `ATCTTTGA` is reported as 0.167.
`AACATCGC` gave an E-score of -0.222.
`TGATCAAA` has an E-score of 0.0513.
For `ATTTAAAC`, the E-score was 0.233.
`ACGTAGAT` gave an E-score of 0.107.
`CCTTAGCA` has an E-score of -0.111.
For `TCCTAGAA`, the E-score was -0.0553.
The E-score of `CGAAACGC` is reported as -0.236.

Block 2
Target: Interferon regulatory factor 3, full length, phosphomimetic (IRF3, Homo sapiens, UniProt Q14653, residues 1-427, S386D/S396D/S398D/S402D/T404D/S405D)
Method: protein-binding microarray
Form: double-stranded DNA, one strand shown
Medium: in vitro
Tested at: 2540 nM top
Setting: 60-bp whole probe
Added: salmon DNA 0.4 mg/ml
Baseline: random background probes
Direction: higher = stronger binding
All sequences stand within: GCCTAGCAC … GTCTTGATTCGCTTGACGCTGCTG
Construct (chain): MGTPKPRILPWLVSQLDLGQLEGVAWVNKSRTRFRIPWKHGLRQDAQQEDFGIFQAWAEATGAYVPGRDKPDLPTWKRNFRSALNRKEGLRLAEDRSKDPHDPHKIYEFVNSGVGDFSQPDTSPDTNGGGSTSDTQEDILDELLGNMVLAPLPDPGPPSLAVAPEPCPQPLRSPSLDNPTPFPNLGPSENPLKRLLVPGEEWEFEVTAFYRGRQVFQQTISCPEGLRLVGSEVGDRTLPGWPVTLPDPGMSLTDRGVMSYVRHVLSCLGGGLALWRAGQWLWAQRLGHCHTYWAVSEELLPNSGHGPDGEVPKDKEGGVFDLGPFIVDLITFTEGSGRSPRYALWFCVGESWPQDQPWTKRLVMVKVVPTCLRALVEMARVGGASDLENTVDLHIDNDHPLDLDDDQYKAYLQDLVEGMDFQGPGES
`GACGAACTGAGTTTCCAGACGTGCTAG`: “fitted relative affinity” 2.27 z-score.
For `GAAGGTCACAAAGACTTCATGTGCTAG`, “fitted relative affinity” read -0.215 z-score.
`TAGAGTCTCAACCCCCAATAAGTGCTA`: “fitted relative affinity” -0.479 z-score.
`GACGAACTGAGTCTCGAGAGGTGCTAG` — result for “fitted relative affinity”: -0.468 z-score.
`GACGATATCGGTCTCGGGACGTGCTAG` — result for “fitted relative affinity”: 1.39 z-score.
For `TTAGATATCGGGACTGGAATAGTGCTA`, “fitted relative affinity” read -0.0413 z-score.
`GACGGTTTCCTTTTCCGGACGTGCTAG`: “fitted relative affinity” 10.8 z-score.
`GACCGTATCGACACTGGGGACGTGCTA`: “fitted relative affinity” 1.31 z-score.

Block 3
Target: Replicase polyprotein 1ab, polymerase (rep, Severe acute respiratory syndrome coronavirus 2, UniProt P0DTD1)
Observed: enzyme activity
Mode: inhibitor
Tested at: 20 µM
c1cc2c(cc1[C@H]1OC[C@H]3[C@@H]1CO[C@@H]3c1ccc3c(c1)OCO3)OCO2 has an inhibition of -0.88%.
O=S(=O)(N[C@H]1CC[C@@](c2cc(F)ccc2F)(S(=O)(=O)c2ccc(Cl)cc2)CC1)C(F)(F)F gave an inhibition of 3.07%.
The inhibition of O=c1[nH]c2ccccc2n1CCCN1CCN(C(c2ccccc2)c2ccccc2)CC1 is reported as 0.69%.
The inhibition of Nc1c(Br)cc(Br)cc1CN[C@H]1CC[C@H](O)CC1 is reported as -2.77%.
Nc1ncnc2c1C(=O)N(c1ccc([C@H]3CC[C@H](CC(=O)O)CC3)cc1)CCO2 gave an inhibition of 0.91%.
The inhibition of CN(C/C=C/C#CC(C)(C)C)Cc1cccc2ccccc12 is reported as -12.8%.
O=C(O)Cc1nn(Cc2nc3cc(C(F)(F)F)ccc3s2)c(=O)c2ccccc12 gave an inhibition of 0.79%.
For OCc1cncc(F)c1, the inhibition was -0.96%.
For Cc1sc(N)c(C(=O)c2cccc(C(F)(F)F)c2)c1C, the inhibition was 4.01%.
For CC(C)C[C@@H](C(=O)N[C@H](C(=O)OC1CCCC1)c1ccccc1)[C@H](O)C(=O)NO, the inhibition was 4.88%.
CCOc1c(N2CCOCC2)cnn(C)c1=O gave an inhibition of -2.52%.
For CC(C)c1cc(-c2ccc(F)c3ccccc23)nc(N)n1, the inhibition was 5.59%.
The inhibition of CCn1cc(C(=O)O)c(=O)c2ccc(C)nc21 is reported as 10.8%.
NC(=O)c1ccc2[nH]ccc2c1 has an inhibition of 1.97%.
For O=C(NCc1ccccc1)OCCO, the inhibition was -10.2%.
With Cc1nnc2ccc(-c3cccc(C(F)(F)F)c3)nn12 the inhibition was -3.19%.
CC(C)NCC(O)c1ccc(O)c(O)c1 (centres unmarked) has an inhibition of 19.4%.
Nc1nc(Cl)nc2c1ncn2[C@@H]1O[C@H](CO)[C@@H](O)[C@H]1O gave an inhibition of -4.82%.
O=C(Nc1ccc(Cl)cc1)Nc1ccc(Cl)c(Cl)c1 gave an inhibition of 0.43%.
CS(=O)(=O)Oc1ccc2c(NC(N)=O)c(C(=O)c3ccc(Cl)cc3Cl)oc2c1 gave an inhibition of -7.17%.
With CN1CCC2=C(C1)c1ccccc1Cc1ccccc12 the inhibition was -2.65%.
O=c1c(-c2ccccc2)c1-c1ccccc1 has an inhibition of 2.49%.
With Fc1ccccc1CNCc1ccc(-c2ccnc3[nH]ccc23)cc1 the inhibition was 5.91%.
For CC(C)c1ccc(CC(=O)N2CCC[C@@H](c3cccc(OC(C)(C)C(=O)O)c3)C2)cc1, the inhibition was -0.24%.
For Cc1cn2nc([C@@H]3CCCCN3C(=O)c3cc(Cl)ccc3NS(C)(=O)=O)cc2nc1N1CC[C@H](N)C1, the inhibition was -3.56%.

Block 4
Target: Histone acetyltransferase KAT6A, winged helix 2, GST fusion (KAT6A, Homo sapiens, UniProt Q92794, residues 85-181)
Method: protein binding microarray
Form: double-stranded DNA, one strand shown
Medium: in vitro
Tested at: not given
Setting: 8-mer, flanks averaged, mean of 2 arrays, mostly near background
Baseline: not given
Direction: higher = stronger binding
Target sequence (chain): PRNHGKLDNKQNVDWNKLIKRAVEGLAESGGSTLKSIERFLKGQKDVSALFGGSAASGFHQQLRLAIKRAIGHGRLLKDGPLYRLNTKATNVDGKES
The E-score of `GAACTATC` is reported as -0.148.
With `CCCCGGTA` the E-score was -0.0248.
With `CGTCATGA` the E-score was -0.00154.
`CGTAAACC` has an E-score of -0.237.
`CGTCACTA` has an E-score of -0.0836.
With `GGCCGCTA` the E-score was 0.0841.
For `ACAACTAA`, the E-score was 0.0673.
`CCTTGGAA` gave an E-score of 0.00138.

Other studies, line by line
CCOc1nc2cccc(C(=O)OC(C)OC(=O)OC3CCCCC3)c2n1Cc1ccc(-c2ccccc2-c2nnn[nH]2)cc1 (centres unmarked) gave a viability of 81.8% (HEK-293T/ACE2; concentration not given, 16 (unit not given); baseline: vehicle).

For quick reference, copied from above (block 1):
`AACATCGC` gave an E-score of -0.222.
`TGATCAAA` has an E-score of 0.0513.
For `ATTTAAAC`, the E-score was 0.233.
`ACGTAGAT` gave an E-score of 0.107.
`CCTTAGCA` has an E-score of -0.111.
For `TCCTAGAA`, the E-score was -0.0553.
The E-score of `CGAAACGC` is reported as -0.236.
